Measurements of several laboratories.
A part holds a random share of what one study measured. Positions count from the first letter of the parent shown.

Set 1 — effect on: binding; method: phage display NGS; molecule type: peptide; concentration: concentration not given; setting: normalized abundance; relative to: input library
Target: UDP-N-acetylglucosamine--peptide N-acetylglucosaminyltransferase 110 kDa subunit (OGT, Homo sapiens, UniProt O15294)
Sequence of UniProt O15294 (whole entry, looked up): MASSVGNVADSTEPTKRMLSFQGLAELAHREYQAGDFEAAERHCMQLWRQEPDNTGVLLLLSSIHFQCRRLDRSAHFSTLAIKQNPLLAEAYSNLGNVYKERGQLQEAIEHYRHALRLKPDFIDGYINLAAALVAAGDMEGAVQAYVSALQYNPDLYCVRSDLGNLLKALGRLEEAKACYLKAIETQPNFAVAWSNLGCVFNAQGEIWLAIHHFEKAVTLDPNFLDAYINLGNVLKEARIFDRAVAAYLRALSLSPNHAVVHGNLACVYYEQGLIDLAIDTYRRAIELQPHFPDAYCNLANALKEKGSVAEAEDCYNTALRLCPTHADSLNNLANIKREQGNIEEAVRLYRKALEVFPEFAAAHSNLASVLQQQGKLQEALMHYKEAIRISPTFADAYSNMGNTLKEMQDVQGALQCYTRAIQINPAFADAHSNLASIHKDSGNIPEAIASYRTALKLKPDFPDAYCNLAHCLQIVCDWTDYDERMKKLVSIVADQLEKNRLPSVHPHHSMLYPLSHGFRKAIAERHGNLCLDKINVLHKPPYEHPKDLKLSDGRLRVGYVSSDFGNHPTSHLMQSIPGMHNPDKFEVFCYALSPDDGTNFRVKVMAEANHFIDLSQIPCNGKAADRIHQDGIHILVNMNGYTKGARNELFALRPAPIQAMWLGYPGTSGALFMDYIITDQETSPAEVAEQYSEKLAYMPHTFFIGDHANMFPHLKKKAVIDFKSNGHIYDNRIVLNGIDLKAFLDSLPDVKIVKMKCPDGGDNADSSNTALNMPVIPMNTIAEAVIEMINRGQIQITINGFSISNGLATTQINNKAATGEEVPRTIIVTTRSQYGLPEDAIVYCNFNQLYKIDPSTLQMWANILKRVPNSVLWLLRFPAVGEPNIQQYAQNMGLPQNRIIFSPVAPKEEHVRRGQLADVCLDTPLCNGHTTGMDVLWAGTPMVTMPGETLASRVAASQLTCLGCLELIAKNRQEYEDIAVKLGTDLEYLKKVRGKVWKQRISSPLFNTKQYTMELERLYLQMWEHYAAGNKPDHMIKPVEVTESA
| Molecule | enrichment fold change |
| --- | --- |
| HSYHHDSVHAGHNIV | 4.78 |
| QHPLHHDMHHMRVMD | 5.46 |
| NYYGQHHHVLQHGDE | 6.11 |
| VLIFPPQYQMFISSY | 10.6 |
| QYLHPHHHFAGMTG | 4.82 |
| SIPEVFFAPVYQIET | 8.43 |
| TWFQHPSNPSHINQS | 5.91 |

Set 2 — method: protein-binding microarray; molecule type: double-stranded DNA, one strand shown; medium: in vitro; concentration: 0.8 µM; setting: whole 60-bp probe, no competitor; reading: higher = stronger binding
Target: Centromere-binding protein 1, full length, N-terminal tag (CBF1, Saccharomyces cerevisiae, UniProt P17106, residues 1-351)
Sequence of UniProt P17106 (whole entry, looked up): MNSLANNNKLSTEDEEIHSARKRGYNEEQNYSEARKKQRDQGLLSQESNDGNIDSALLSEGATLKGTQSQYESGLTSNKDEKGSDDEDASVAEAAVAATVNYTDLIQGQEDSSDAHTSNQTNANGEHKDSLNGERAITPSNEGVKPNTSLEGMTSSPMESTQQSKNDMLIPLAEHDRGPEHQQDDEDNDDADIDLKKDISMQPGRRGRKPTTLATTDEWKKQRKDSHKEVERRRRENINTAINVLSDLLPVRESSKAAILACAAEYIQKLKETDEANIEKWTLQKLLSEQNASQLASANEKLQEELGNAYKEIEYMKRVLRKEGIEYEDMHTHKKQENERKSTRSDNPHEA
| Oligonucleotide | fluorescence intensity [a.u.] |
| --- | --- |
| GAAACAATGTTCCCTCTGATGTACATTTACGAATAGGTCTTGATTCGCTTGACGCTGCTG | 510 |
| CTAAGGTGGTGTTTCCTCGTGTCCGTATCAAGCTTCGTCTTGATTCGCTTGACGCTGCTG | 594 |
| GAACGAGGTTTTAAAAACGTGTGATTAGCTTGATAGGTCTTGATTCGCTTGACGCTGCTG | 602 |
| GAAGAGAGCGGCTTACATCAGACATCTTTTCTCTAGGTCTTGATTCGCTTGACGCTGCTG | 510 |
| GAATTGTGCTACTGTCACGATCCGCAAGAGATATAGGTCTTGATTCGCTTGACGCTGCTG | 592 |
| GAATTACTCAAATGTGTCACAATTTCAACTTCTTAGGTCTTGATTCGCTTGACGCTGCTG | 540 |
| GAATGGTAAAAAAGTATGACCACGTTAACTTTCTAGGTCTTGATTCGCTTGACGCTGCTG | 627 |
| CTAGGATACTTCCGTCATCAGAAAGTAATTCACTTCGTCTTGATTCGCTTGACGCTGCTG | 507 |

Set 3 — target: Sox, HMG box (Pigoraptor chileana); method: Spec-seq; molecule type: double-stranded DNA, one strand shown; medium: in vitro; concentration: not given; setting: whole probe, mean of replicates; relative to: not given; reading: lower = stronger binding; constant ends, left off below: GAGTCGTCTCGTCAGCAC … CCGTAGAGCACTCAGGTC
Construct (chain): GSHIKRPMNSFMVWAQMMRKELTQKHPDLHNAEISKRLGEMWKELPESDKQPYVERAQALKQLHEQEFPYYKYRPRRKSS
| Oligonucleotide | relative binding energy [ln ratio] |
| --- | --- |
| CATAACT | -0.152 |
| CATATAA | -0.334 |
| CATCCGG | 0.736 |
| CACAGTT | -0.106 |
| CGTGGTT | 1.07 |
| CATCCGC | 0.954 |
| TTGCGTT | 0.821 |
| TCTGGTT | 0.604 |

Set 4 — target: CCNB3, cyclin fold, Cln2 fusion (human); method: yeast growth competition, sequencing; medium: yeast; setting: strong parent motif; relative to: not given; reading: higher = stronger binding
Parent: viral docking peptide; KGVKRKLFAEDSS; partner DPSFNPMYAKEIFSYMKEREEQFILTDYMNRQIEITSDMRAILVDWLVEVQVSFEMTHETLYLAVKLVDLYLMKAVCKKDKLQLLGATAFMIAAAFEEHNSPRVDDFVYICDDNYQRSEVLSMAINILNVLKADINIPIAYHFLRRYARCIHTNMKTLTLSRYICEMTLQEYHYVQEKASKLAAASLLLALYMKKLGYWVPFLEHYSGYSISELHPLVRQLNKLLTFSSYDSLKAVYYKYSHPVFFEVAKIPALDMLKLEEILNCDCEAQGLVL
| Variant | normalised enrichment score |
| --- | --- |
| V3L | 1.22 |
| F8Y | 0.497 |
| L7A | -0.241 |
| K4A | 2.04 |
| V3M | 0.237 |
| V3D | -0.0786 |
| R5F | 0.306 |
| E10S | 2.02 |
| F8E | 0.074 |
| L7R | 0.102 |
| A9R | 1.97 |
| E10D | 3.8 |
| D11Q | 1.87 |
| A9W | 1.14 |
| K6C | 0.948 |
| K4G | 0.494 |
| F8P | -0.163 |
| R5Y | 0.133 |
| S12K | 2.54 |
| K6N | 0.904 |
| S12C | 3.11 |
| F8S | -0.419 |
| L7I | 0.423 |
| R5A | 0.282 |
| K4L | 0.462 |

Set 5 — target: tungstate, free oxyanion; method: microfluidic competitive inhibition; medium: in vitro, cell-free expressed; concentration: not given; reading: lower = stronger binding
Setting: derived from inhibition constants, unchanged parent 2230 nM
Parent: PafA, mature enzyme, eGFP fusion (Elizabethkingia meningoseptica, UniProt Q9KJX5); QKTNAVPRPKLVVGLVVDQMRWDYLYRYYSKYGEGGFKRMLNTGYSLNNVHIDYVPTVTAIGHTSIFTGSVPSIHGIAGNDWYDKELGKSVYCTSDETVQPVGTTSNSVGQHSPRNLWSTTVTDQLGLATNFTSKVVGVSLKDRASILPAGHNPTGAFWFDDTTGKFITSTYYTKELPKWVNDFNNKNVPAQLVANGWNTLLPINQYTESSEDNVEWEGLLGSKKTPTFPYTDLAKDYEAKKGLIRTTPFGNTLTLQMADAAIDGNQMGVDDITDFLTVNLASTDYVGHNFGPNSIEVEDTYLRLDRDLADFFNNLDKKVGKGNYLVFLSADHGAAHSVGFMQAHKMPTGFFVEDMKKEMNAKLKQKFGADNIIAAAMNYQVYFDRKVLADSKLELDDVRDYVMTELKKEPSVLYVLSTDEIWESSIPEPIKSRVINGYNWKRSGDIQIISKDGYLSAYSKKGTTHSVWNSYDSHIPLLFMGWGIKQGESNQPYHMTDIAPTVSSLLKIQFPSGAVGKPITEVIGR
| Variant | oxyanion analog dissociation constant |
| --- | --- |
| L414G | 0.656 µM |
| D300G | 1.09 µM |
| G110V | 2.4 µM |
| Q125V | 2.76 µM |
| S283G | 2.42 µM |
| L478G | 1.3 µM |
